Results pooled from the literature.
Numbered parts are unrelated; each lists some results of a single study. Several values in a cell are separate wells, animals, samples, runs or records.
Sequence of UniProt Q13188 (whole entry, looked up): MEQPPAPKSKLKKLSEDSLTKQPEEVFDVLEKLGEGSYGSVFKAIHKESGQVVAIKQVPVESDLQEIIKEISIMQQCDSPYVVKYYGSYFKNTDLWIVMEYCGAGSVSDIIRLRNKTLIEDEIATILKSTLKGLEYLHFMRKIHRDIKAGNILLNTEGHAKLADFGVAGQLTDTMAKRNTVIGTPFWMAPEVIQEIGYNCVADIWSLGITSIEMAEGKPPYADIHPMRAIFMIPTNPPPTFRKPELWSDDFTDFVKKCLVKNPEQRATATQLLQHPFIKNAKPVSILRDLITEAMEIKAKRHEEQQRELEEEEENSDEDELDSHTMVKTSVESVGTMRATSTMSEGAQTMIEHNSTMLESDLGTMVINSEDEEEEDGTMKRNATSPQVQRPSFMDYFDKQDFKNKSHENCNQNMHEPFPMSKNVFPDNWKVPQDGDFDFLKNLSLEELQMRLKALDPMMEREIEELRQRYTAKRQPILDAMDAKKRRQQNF
Sequence of UniProt Q99558 (whole entry, looked up): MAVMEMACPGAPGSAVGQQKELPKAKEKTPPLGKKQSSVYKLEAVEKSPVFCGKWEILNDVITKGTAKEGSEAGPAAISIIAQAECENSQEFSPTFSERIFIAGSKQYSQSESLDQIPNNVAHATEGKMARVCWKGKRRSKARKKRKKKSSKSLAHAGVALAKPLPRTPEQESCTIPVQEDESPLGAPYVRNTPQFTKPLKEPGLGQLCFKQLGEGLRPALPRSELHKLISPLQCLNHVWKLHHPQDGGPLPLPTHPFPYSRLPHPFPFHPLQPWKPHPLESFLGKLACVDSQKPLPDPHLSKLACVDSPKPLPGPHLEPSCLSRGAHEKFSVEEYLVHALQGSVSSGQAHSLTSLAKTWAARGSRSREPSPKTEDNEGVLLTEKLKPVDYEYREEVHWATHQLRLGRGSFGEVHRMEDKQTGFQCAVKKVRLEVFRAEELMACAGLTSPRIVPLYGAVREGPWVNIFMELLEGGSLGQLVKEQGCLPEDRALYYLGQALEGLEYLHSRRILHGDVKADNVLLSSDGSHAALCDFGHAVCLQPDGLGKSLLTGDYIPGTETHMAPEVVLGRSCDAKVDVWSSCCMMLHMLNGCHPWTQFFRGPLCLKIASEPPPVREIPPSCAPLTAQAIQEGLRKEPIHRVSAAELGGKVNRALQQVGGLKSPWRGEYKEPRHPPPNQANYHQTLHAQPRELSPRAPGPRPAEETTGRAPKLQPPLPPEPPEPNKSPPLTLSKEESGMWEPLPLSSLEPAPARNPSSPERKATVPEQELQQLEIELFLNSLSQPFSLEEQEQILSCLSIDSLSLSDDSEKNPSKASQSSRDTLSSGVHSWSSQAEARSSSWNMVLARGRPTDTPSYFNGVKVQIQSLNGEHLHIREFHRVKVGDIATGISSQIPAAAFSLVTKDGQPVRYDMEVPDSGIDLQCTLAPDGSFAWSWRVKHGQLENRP
Sequence of UniProt O15197 (whole entry, looked up): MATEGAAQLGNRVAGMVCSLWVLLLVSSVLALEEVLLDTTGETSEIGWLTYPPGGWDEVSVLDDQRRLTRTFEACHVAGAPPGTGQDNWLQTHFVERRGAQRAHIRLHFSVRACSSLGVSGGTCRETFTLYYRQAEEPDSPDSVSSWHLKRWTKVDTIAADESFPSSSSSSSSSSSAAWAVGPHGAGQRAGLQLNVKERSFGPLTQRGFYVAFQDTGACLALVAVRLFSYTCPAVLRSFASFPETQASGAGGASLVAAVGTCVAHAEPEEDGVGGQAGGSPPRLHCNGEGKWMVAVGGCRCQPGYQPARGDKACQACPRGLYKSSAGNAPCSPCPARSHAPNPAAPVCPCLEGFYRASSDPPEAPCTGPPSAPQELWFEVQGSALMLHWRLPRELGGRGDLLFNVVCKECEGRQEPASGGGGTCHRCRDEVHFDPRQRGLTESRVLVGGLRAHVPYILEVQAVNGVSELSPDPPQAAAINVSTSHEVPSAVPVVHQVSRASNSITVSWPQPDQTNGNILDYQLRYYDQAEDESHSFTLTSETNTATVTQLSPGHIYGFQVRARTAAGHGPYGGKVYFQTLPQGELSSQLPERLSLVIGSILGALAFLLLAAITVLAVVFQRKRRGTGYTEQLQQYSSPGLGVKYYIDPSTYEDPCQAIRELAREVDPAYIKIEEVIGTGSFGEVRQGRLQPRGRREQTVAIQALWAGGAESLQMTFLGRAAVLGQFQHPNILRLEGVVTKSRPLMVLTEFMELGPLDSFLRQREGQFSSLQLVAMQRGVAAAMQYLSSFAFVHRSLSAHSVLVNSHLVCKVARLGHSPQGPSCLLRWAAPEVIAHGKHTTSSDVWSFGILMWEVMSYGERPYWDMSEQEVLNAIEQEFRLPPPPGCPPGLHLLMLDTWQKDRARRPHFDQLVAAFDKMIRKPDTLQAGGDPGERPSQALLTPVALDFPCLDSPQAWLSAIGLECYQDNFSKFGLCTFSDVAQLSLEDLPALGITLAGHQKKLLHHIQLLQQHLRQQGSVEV
Sequence of UniProt Q13233 (whole entry, looked up): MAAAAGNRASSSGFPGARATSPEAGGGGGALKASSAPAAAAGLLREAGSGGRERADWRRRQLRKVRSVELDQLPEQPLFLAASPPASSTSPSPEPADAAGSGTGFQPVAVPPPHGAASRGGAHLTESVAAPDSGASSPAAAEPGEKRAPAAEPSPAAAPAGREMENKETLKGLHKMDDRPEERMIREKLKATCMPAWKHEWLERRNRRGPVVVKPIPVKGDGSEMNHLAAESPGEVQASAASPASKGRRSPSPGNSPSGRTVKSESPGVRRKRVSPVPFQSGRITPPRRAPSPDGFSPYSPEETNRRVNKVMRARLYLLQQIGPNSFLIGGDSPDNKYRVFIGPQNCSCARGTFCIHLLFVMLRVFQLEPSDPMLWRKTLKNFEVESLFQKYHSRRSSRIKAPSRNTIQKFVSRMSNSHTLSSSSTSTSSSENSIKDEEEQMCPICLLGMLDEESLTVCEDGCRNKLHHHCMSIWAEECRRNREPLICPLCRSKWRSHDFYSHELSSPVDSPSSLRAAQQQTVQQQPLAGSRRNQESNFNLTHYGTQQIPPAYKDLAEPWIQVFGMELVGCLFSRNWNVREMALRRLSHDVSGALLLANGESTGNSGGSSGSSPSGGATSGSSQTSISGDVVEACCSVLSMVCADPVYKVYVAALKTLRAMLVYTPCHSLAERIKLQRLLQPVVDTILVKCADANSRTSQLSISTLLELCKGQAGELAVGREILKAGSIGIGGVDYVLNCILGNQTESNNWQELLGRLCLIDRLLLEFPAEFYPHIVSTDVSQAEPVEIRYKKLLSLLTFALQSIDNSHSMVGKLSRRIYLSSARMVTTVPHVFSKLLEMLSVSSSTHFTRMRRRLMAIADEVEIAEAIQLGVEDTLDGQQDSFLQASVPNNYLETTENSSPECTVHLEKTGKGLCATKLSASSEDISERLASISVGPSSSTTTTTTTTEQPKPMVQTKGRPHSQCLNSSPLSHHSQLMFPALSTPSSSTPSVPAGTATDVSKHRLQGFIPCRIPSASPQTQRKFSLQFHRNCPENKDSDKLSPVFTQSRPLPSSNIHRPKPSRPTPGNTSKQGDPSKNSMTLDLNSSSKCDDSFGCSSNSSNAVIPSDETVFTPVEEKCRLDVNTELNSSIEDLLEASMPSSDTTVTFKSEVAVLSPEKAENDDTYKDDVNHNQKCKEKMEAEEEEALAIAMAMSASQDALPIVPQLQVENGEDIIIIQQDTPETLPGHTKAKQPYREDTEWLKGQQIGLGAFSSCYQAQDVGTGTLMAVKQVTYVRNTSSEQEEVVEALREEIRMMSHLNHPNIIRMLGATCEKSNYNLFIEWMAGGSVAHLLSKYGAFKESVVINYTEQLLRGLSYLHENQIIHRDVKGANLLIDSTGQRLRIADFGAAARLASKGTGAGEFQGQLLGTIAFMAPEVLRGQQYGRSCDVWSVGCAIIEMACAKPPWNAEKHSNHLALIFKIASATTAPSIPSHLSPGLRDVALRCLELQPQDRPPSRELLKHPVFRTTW

Series 1
SMILES: Cc1sc(C(=O)NC2COC2)cc1-n1cc(NC(=O)Nc2c(F)cccc2Cl)cn1
Effect on: enzyme activity
Tested at: 10 µM
Relative to: untreated control
target | remaining activity
Mitogen-activated protein kinase kinase kinase 1 (MAP3K1, Homo sapiens, UniProt Q13233) | 91.7%
Ephrin type-A receptor 1 (EPHA1, Homo sapiens, UniProt P21709) | 86.4%
Serine/threonine-protein kinase Nek1 (NEK1, Homo sapiens, UniProt Q96PY6) | 89.3%
Glycogen synthase kinase-3 beta (GSK3B, Homo sapiens, UniProt P49841) | 94.6%

Series 2
Organism: Sarcocystis neurona
Effect on: parasite growth
Tested at: 10 µM
Time: 96 h
Notes: first screen
Relative to: untreated
Structure (SMILES) | log2 fold change
COC(=O)Nc1nc2cc(C(=O)c3ccc(F)cc3)ccc2[nH]1 | -0.56
O=C1[C@H](CC[C@H](O)c2ccc(F)cc2)[C@@H](c2ccc(O)cc2)N1c1ccc(F)cc1 | -0.65
CSc1ccc2c(c1)N(CCC1CCCCN1C)c1ccccc1S2 (centres unmarked) | -0.57
Cc1ccc(Cl)c(Nc2ccccc2C(=O)O)c1Cl | 0.06
CCCCC1=NC2(CCCC2)C(=O)N1Cc1ccc(-c2ccccc2-c2nnn[nH]2)cc1 | -0.29
CCOC(=O)[C@@]1(CCCCCCOc2ccc(Cl)cc2)CO1 | 0.25

Series 3
Structure (SMILES): COc1cc(C(=O)N2CCC(N3CCN(C)CC3)CC2)ccc1Nc1ncc2c(n1)N(C)c1ccccc1C(=O)N2C
tested on | assay | system | setting | inhibition [%]
AXL mouse | KiNativ profiling | mouse brain lysate | 1 µM, activation loop site, together with: ADP acyl phosphate probe | -3.5
MST4 and YSK1 human | KiNativ profiling | human PBMC | 1 µM, LYS2 site, together with: ADP acyl phosphate probe | 11.7
mouse PCTAIRE1/2/3 | probe labelling, KiNativ ATP probe | mouse brain lysate | 0.1 µM, LYS2 site DLkPQNLLINER | -4.6
MARK1 (mouse) | probe labelling, KiNativ ATP probe | mouse brain lysate | 0.1 µM, LYS1 labelled site | 15.9
human PBMC | probe labeling, inhibitor, KiNativ profiling, refers to: DTGHIYAMkILR | cell lysate | 1 µM, LYS1 site, together with: ATP acyl-phosphate probe | 10.6

Series 4
Structure (SMILES): CCS(=O)(=O)c1cc2cc(C[C@](O)(CC(C)(C)c3ccc(F)cc3C(N)=O)C(F)(F)F)[nH]c2cn1
Effect on: cell-free assay
Technique: competition with immobilised ligand
Tested at: 1 µM
target | remaining binding [%]
Calcium/calmodulin-dependent protein kinase type 1B (PNCK, Homo sapiens, UniProt Q6P2M8) | 77
Mitogen-activated protein kinase kinase kinase 14 (MAP3K14, Homo sapiens, UniProt Q99558) | 88
Tyrosine-protein kinase Fyn (FYN, Homo sapiens, UniProt P06241) | 77
Tyrosine-protein kinase ABL1, phosphorylated (ABL1, Homo sapiens, UniProt P00519) | 100
Phosphatidylinositol 4,5-bisphosphate 3-kinase catalytic subunit alpha isoform (PIK3CA, Homo sapiens, UniProt P42336, C420R) | 95
Epithelial discoidin domain-containing receptor 1 (DDR1, Homo sapiens, UniProt Q08345) | 94
Serine/threonine-protein kinase 3 (STK3, Homo sapiens, UniProt Q13188) | 97
Receptor-type tyrosine-protein kinase FLT3 (FLT3, Homo sapiens, UniProt P36888, F691L/ITD) | 95
Serine/threonine-protein kinase Nek7 (NEK7, Homo sapiens, UniProt Q8TDX7) | 100
Ephrin type-B receptor 6 (EPHB6, Homo sapiens, UniProt O15197) | 100
Calcium/calmodulin-dependent protein kinase type 1 (CAMK1, Homo sapiens, UniProt Q14012) | 86
Mitogen-activated protein kinase 9 (MAPK9, Homo sapiens, UniProt P45984) | 100
Mitogen-activated protein kinase 6 (MAPK6, Homo sapiens, UniProt Q16659) | 100
Serine/threonine-protein kinase TNNI3K (TNNI3K, Homo sapiens, UniProt Q59H18) | 80
TGF-beta receptor type-2 (TGFBR2, Homo sapiens, UniProt P37173) | 100
Cyclin-dependent kinase 9 (CDK9, Homo sapiens, UniProt P50750) | 100

Series 5
Structure (SMILES): CC(=O)N[C@@H](Cc1c[nH]c2ccccc12)C(=O)N[C@@H](CCC(=O)C=[N+]=[N-])C(=O)OC(C)C
Technique: flow cytometry
Species: mice bearing MC38-OVA tumours
Medium: tumour-infiltrating CD8+ T cells
Dose: dose not given
assay | how to read | cell fraction
refers to: TCF1- TOX+ CD8+ cells | relative to: CD8+ TILs | 16.8% and 16.4% and 15.7% and 15.6% and 18.4% and 17.7% and 26.8%
refers to: CD62L+ CD8+ cells | relative to: CD8+ TILs | 23.6% and 16.9% and 17.1% and 28.7%
refers to: TCF1- TOX+ CD8+ cells | relative to: OVA-tetramer+ CD8+ TILs | 6.63% and 14.9% and 15.3% and 13.6% and 16.2% and 10.8% and 18% and 14.8%
refers to: PD-1+ LAG-3+ cells | relative to: CD8+ TILs | 21.3% and 31.9% and 25.5%

For quick reference, copied from above (series 4):
target | remaining binding [%]
Phosphatidylinositol 4,5-bisphosphate 3-kinase catalytic subunit alpha isoform (PIK3CA, Homo sapiens, UniProt P42336, C420R) | 95
Epithelial discoidin domain-containing receptor 1 (DDR1, Homo sapiens, UniProt Q08345) | 94
Serine/threonine-protein kinase 3 (STK3, Homo sapiens, UniProt Q13188) | 97
Receptor-type tyrosine-protein kinase FLT3 (FLT3, Homo sapiens, UniProt P36888, F691L/ITD) | 95
